Measurements collected from several papers.
Each line is one published result; not all experiments were run side by side.
Route: oral

| SMILES | test system | conditions | how to read | endpoint | result |
| --- | --- | --- | --- | --- | --- |
| Cc1noc(C)c1-c1cc(C(O)(c2ccccn2)c2ccccn2)c2nc(C3CC3)[nH]c2c1 | human male fasted, plasma | 6 mg once daily, cycle 1 day 8 | – | AUC(0-last) | 3110 ng·h/mL |
| CC(C)NC(=O)COc1cccc(-c2nc(Nc3ccc4[nH]ncc4c3)c3ccccc3n2)c1 | human male, plasma | dose not given, day 13, adjusted geometric mean, together with: rosuvastatin | – | AUC(0-last) | 13600 ng·h/mL |
| COC(=O)N[C@@H](C)CNc1nccc(-c2cn(C(C)C)nc2-c2cc(Cl)cc(NS(C)(=O)=O)c2F)n1 | humans, plasma | dose not given, day 1, single dose, together with: binimetinib | – | AUC(0-last) median | 23500 ng·h/mL |
| CC(C)n1nc(-c2ccc3oc(N)nc3c2)c2c(N)ncnc21 | human, plasma | 3 mg once daily, cycle 1 day 15 | – | AUC(0-last) | 253 ng·h/mL |
| C=CC(=O)N(C)CCOc1c(N)ncnc1-c1cc(F)cc(NC(=O)c2ccc(C3CC3)cc2F)c1C | human | 50 mg, day 3, median, given alone | – | AUC(0-last) per dose | 4.61 ng·h/mL/mg |
| C=CC(=O)N1CCC[C@@H](n2c(=O)n(-c3ccc(Oc4ccccc4)cc3)c3c(N)nccc32)C1 | human | 60 mg | reference: fed over fasted | AUC(0-last) fed/fasted ratio | 2.24 |
| CCOc1c([C@H](C)n2nc(C)c3c(N)ncnc32)cc(Cl)c(F)c1[C@@H]1CNC(=O)C1 | human patients, plasma | 30 mg, day 1, geometric mean | – | AUC(0-last) | 9.63 µM·h |
| CN(C)C(=O)c1cc2cnc(Nc3ccc(N4CCNCC4)cn3)nc2n1C1CCCC1 | human, mild renal impairment, plasma | 400 mg, geometric mean | – | AUC(0-last) | 6560 ng·h/mL |
| CC(F)(F)c1cc(F)ccc1-c1sc2cc(O)ccc2c1Oc1ccc(/C=C/C(=O)O)cc1 | human, serum | 200 mg once daily, cycle 1 day 28, fasted, mean | – | AUC(0-last) | 5730 ng·h/mL |

A few entries again:
| SMILES | test system | conditions | how to read | endpoint | result |
| --- | --- | --- | --- | --- | --- |
| C=CC(=O)N1CCC[C@@H](n2c(=O)n(-c3ccc(Oc4ccccc4)cc3)c3c(N)nccc32)C1 | human | 60 mg | reference: fed over fasted | AUC(0-last) fed/fasted ratio | 2.24 |
